# Published values from different studies.
# ± gives the spread as reported.
Compound,tested on,test,system,conditions,how to read,measurement,result
Nc1ncnc2c1ncn2[C@@H]1O[C@@H]2COP(=O)(O)O[C@H]3[C@@H](O)[C@H](n4cnc5c(=O)[nH]cnc54)O[C@@H]3COP(=O)(O)O[C@H]2[C@H]1O,HFF-1,"RNA sequencing, measured: Reactome Interferon Signaling",,upregulated pathways,baseline: mock,fold enrichment,12.5
C[C@H](C(=O)N[C@H]1COc2ccccc2[C@@H]1S(C)(=O)=O)c1ccc(F)cc1,"GABAA central, rat",binding,,"10 µM, Eurofins selectivity panel, added: flunitrazepam",,inhibition,4%
CC(C)N1CCC(NC2CCN(c3cccc(-c4cc5cc(F)ccc5[nH]4)c3)CC2)CC1,DU-145,,,,,CC50,5.75 µM
CN1CCN(S(=O)(=O)c2cc([N+](=O)[O-])ccc2N(CCOS(C)(=O)=O)CCOS(C)(=O)=O)CC1,,,"NSG mice, sample CF PDX","intraperitoneal, 25 mg/kg weekly x3",baseline: treated over vehicle,EFS ratio (T/C),10.5
O=C(NNc1ccc(F)c(F)c1)c1nnc(C23CC4CC(CC(C4)C2)C3)o1,Fusarium graminearum,"fungal growth, inhibitor",,50 µg/mL,,inhibition,100%
c1ccc(C(NCCNC(c2ccccc2)c2ccccc2)c2ccccc2)cc1,"sodium channel site 2, rat",binding,,"10 µM, Eurofins selectivity panel",,inhibition,109%
COc1cc(CCC[P+](c2ccccc2)(c2ccccc2)c2ccccc2)c(OC)c2c1OCO2.[I-],HOP-92,SRB,,,,GI50,-5.94 log M
N.N.[Cl][Pt][Cl],CAL-27,flow cytometry sub-G1,,"3 µM, 24 h",,apoptotic cells,26.3%
CC(=O)c1c(C)c2cnc(Nc3ccc(C4CCN(CCS(C)(=O)=O)CC4)cn3)nc2n(C2CCCC2)c1=O,,RECIST v1.1,HR+/HER2- advanced breast cancer patients,"dose not given, phase Ib all arms pooled",,best response stable disease,50.6%
COc1ccc(-n2nc(C(C)=O)s/c2=N\N=C(/C)c2ccc(NC(C)=O)cc2)cc1,HepG2,,,1.25 µM,,toxicity,94.8%
CN1C(=O)C(C2C3=C(CC(C)(C)CC3=O)Oc3c(O)cccc32)C(=O)N(C)C1=O (centres unmarked),3T3-L1 preadipocytes,"adipogenesis, Oil Red O staining",,"IC20, 14 days",,mean lipid content,0.584 OD492
O=C(NCCc1ncc(C(F)(F)F)cc1Cl)c1ccccc1C(F)(F)F,Fusarium graminearum,"fungal growth, inhibitor",,,,EC50,6.6 ± 0.94 µg/mL
CCCCC1(CCCC)CN(c2ccccc2)c2cc(SC)c(OCC(=O)N[C@@H](C(=O)NCC(=O)O)c3ccccc3)cc2S(=O)(=O)C1,,measured: LDL cholesterol,"human, serum","10 mg once daily, day 11",,serum LDL-C,89.8 mg/dL
O=C(NNc1cc(F)ccc1F)c1nnc(C23CC4CC(CC(C4)C2)C3)o1,Fusarium graminearum,"fungal growth, inhibitor",,,,EC50,4.41 ± 0.4 µg/mL
CC[C@H](C)[C@@H]1NC(=O)[C@@H]2CCCN2C(=O)[C@H](CC(C)C)NC(=O)[C@H](CC(C)C)NC(=O)CNC(=O)[C@@H](NC(=O)[C@@H](NC(=O)[C@H](CC(=O)O)NC(=O)CNC(=O)[C@@H](NC(=O)[C@H](C)NC(=O)CNC(=O)[C@H](CCCCN)NC(=O)[C@H](CC(C)C)NC(=O)[C@H](CC(C)C)NC(=O)[C@H](CCCCN)NC(=O)CNC(=O)[C@@H](NC(=O)[C@@H](N)CC(C)C)C(C)C)C(C)C)C(C)C)CSSC[C@@H](C(=O)O)NC1=O,,"RNA-seq, measured: Cd52","mouse, traumatic brain injury model, frontal cortex and hippocampus",dose not given,baseline: TBI alone,log2 fold change,-2.15
CN1CCN(C2(CNC3CCN(c4cccc(-c5cc6cc(F)ccc6[nH]5)c4)CC3)CCC2)CC1,DU-145,,,,,CC50,5.45 µM
COc1c(CCC[P+](c2ccccc2)(c2ccccc2)c2ccccc2)cc2c(c1OC)OCO2.[I-],EKVX,SRB,,,,TGI,-4.29 log M
CS(=O)(=O)CCCn1c(Cn2c(=O)n(CC(F)(F)F)c3ccncc32)cc2cc(Cl)ccc21,respiratory syncytial virus,RT-qPCR,"hospitalized infants 1-24 months, nasal swab","oral, 9, 6 or 5 mg/kg daily, day 28, high dose by age cohort",baseline: placebo,LS mean difference vs placebo,0.34 log10 copies/mL
CC[C@H](C)[C@H](NC(=O)[C@H](C)NC(=O)[C@H](CCCCN)NC(=O)[C@H](CC(C)C)NC(=O)[C@H](C)NC(=O)[C@@H](NC(=O)[C@H](Cc1c[nH]cn1)NC(=O)[C@H](CC(C)C)NC(=O)[C@@H](NC(=O)[C@@H](NC(=O)[C@H](CCCCN)NC(=O)[C@H](C)NC(=O)[C@H](C)NC(=O)[C@H](CO)NC(=O)[C@H](CCCCN)NC(=O)[C@H](Cc1ccccc1)NC(=O)[C@@H](NC(=O)[C@H](CCCCN)NC(=O)[C@H](CC(C)C)NC(=O)[C@H](Cc1ccccc1)NC(=O)[C@H](CO)NC(=O)[C@H](CCCCN)NC(=O)[C@H](Cc1c[nH]c2ccccc12)NC(=O)[C@H](CCCCN)NC(C)=O)[C@@H](C)O)[C@@H](C)O)C(C)C)[C@@H](C)O)C(=O)N[C@@H](CO)C(=O)N[C@@H](CO)C(N)=O,Streptococcus pyogenes,,ATCC 13813,1 strain,,MBC90,16 µg/mL
O=C(Nc1cccnn1)N1CCN([C@@H]2CCOc3cc(C(F)(F)F)ccc32)CC1,PDE6,enzyme activity,,20 µM,,inhibition,9%

# Some of these lines once more:
Compound,tested on,test,system,conditions,how to read,measurement,result
O=C(Nc1cccnn1)N1CCN([C@@H]2CCOc3cc(C(F)(F)F)ccc32)CC1,PDE6,enzyme activity,,20 µM,,inhibition,9%
CC[C@H](C)[C@H](NC(=O)[C@H](C)NC(=O)[C@H](CCCCN)NC(=O)[C@H](CC(C)C)NC(=O)[C@H](C)NC(=O)[C@@H](NC(=O)[C@H](Cc1c[nH]cn1)NC(=O)[C@H](CC(C)C)NC(=O)[C@@H](NC(=O)[C@@H](NC(=O)[C@H](CCCCN)NC(=O)[C@H](C)NC(=O)[C@H](C)NC(=O)[C@H](CO)NC(=O)[C@H](CCCCN)NC(=O)[C@H](Cc1ccccc1)NC(=O)[C@@H](NC(=O)[C@H](CCCCN)NC(=O)[C@H](CC(C)C)NC(=O)[C@H](Cc1ccccc1)NC(=O)[C@H](CO)NC(=O)[C@H](CCCCN)NC(=O)[C@H](Cc1c[nH]c2ccccc12)NC(=O)[C@H](CCCCN)NC(C)=O)[C@@H](C)O)[C@@H](C)O)C(C)C)[C@@H](C)O)C(=O)N[C@@H](CO)C(=O)N[C@@H](CO)C(N)=O,Streptococcus pyogenes,,ATCC 13813,1 strain,,MBC90,16 µg/mL
CC(C)N1CCC(NC2CCN(c3cccc(-c4cc5cc(F)ccc5[nH]4)c3)CC2)CC1,DU-145,,,,,CC50,5.75 µM
